Measured values from different studies.
Parts stem from different laboratories: compare values within a part only.

Set 1
Target: Prothrombin, mature alpha-thrombin (F2, Homo sapiens, UniProt P00734)
Technique: aptamer microarray, sandwich
Molecule type: DNA with 2'F-ANA
Matrix: in vitro
Tested at: 200 nM
Notes: whole 15-mer aptamer, many near background
Together with: Cy3 exosite-II aptamer, 400 nM
Direction: higher = stronger binding
Strand: GGTTGGTGTGGTTGG
| Modification | mean fluorescence intensity |
| --- | --- |
| 2'F-ANA at 3 4 6 7 | 708 a.u. |
| 2'F-ANA at 1 3 4 6 9 11 12 13 | 210 a.u. |
| 2'F-ANA at 1 4 5 6 8 10 11 14 15 | 53.8 a.u. |
| 2'F-ANA at 1 2 7 9 13 14 | 59.9 a.u. |
| 2'F-ANA at 3 4 6 7 8 11 12 14 15 | 366 a.u. |
| 2'F-ANA at 2 3 5 6 7 10 11 13 | 46.8 a.u. |
| 2'F-ANA at 1 2 3 5 6 8 10 11 12 13 14 | 50.1 a.u. |
| 2'F-ANA at 1 11 12 13 15 | 278 a.u. |
| 2'F-ANA at 1 3 5 9 10 11 | 64.2 a.u. |
| 2'F-ANA at 5 7 9 11 12 15 | 114 a.u. |

Set 2
Target: Centromere-binding protein 1, full length, N-terminal tag (CBF1, Saccharomyces cerevisiae, UniProt P17106, residues 1-351)
UniProt P17106, sequence (whole entry, looked up): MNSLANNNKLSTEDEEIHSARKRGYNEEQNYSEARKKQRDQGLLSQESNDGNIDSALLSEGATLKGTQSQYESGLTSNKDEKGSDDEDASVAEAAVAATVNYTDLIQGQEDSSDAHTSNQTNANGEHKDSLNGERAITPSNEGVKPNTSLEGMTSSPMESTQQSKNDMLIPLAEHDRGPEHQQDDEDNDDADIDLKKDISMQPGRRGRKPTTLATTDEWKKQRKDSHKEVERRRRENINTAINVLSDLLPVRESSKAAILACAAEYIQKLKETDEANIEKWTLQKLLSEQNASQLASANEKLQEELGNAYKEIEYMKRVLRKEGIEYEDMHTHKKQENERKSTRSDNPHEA
Technique: protein-binding microarray
Molecule type: double-stranded DNA, one strand shown
Matrix: in vitro
Tested at: 0.8 µM
Notes: whole 60-bp probe, no competitor
Direction: higher = stronger binding
| Strand | fluorescence intensity [a.u.] |
| --- | --- |
| CTAGAAATTTCCCGCCACATGAACTGAGTCAGGTTCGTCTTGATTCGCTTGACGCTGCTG | 597 |
| GAAGTAAGATCGGATCACGCTGCCAAGGCGCATTAGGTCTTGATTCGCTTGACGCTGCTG | 708 |
| CTAAAGCATCAACACCATGTGCATACCATACCGTTCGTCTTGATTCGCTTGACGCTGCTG | 577 |
| CTATTTCATGCCATTGGTGACACGAAAAAAAAATTCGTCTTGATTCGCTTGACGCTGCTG | 576 |
| GAACCATTACCTACTAACGTGAGCGTAGAAGTTTAGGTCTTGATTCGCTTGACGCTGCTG | 573 |
| CTAAAAAGAATACGTCACCAAAGTATCAGAAACTTCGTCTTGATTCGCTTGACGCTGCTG | 520 |
| GAAGCACCCCGTAGTCACGTTCGCCTTCGCAGCTAGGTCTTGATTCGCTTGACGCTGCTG | 1580 |
| CTATTATTCATTGATGGTGTGATTCTTCGAAACTTCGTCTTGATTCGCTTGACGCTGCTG | 573 |
| GAACCCATGTCTCTACTGGTGGTGGTGCTTCTTTAGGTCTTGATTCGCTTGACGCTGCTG | 519 |
| CTACTAAATATAGTGATCGTGGTCATAAATTAATTCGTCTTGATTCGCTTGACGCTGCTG | 596 |
| GAAGAGATTTCTCATCATCACCTACATATTCTCTAGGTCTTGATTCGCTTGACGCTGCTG | 542 |

Set 3
Target: Histone acetyltransferase KAT6A, winged helix 1, GST fusion (KAT6A, Homo sapiens, UniProt Q92794, residues 1-85)
Technique: protein binding microarray
Molecule type: double-stranded DNA, one strand shown
Matrix: in vitro
Tested at: not given
Notes: 8-mer, flanks averaged, mean of 2 arrays, mostly near background
Baseline: not given
Direction: higher = stronger binding
Residues (chain): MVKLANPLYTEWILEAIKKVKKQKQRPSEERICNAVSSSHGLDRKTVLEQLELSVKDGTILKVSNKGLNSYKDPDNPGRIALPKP
| Strand | E-score |
| --- | --- |
| CCCCCGAC | 0.229 |
| AACTCCCC | 0.00386 |
| TAAATTTA | -0.0783 |
| CGTATCGC | 0.274 |
| ACGGCGCC | 0.43 |
| GCGCCCGC | 0.45 |
| CACGTATA | -0.0491 |
| AAACCGTC | 0.185 |

Mixed results
| Substance | target | assay | test system | conditions | scale | endpoint | value |
| --- | --- | --- | --- | --- | --- | --- | --- |
| PhoQ, residues 284 288 289 292 302 303 TASMAF | PhoP, residues 12 14 15 18 19 QYCSL (Escherichia coli, UniProt P23836) | Sort-seq, item: YFP reporter | E. coli | PhoQ-PhoP variant library, together with: 10 µM Mg2+ | baseline: high Mg2+ state, higher = stronger signaling | fold induction | 10.4 |

A few entries again (set 2):
| Strand | fluorescence intensity [a.u.] |
| --- | --- |
| CTAGAAATTTCCCGCCACATGAACTGAGTCAGGTTCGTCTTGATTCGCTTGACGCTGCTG | 597 |
| CTAAAGCATCAACACCATGTGCATACCATACCGTTCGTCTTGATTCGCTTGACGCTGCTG | 577 |
